Results from different studies.
Each line is one published result; not all experiments were run side by side. ± gives the spread as reported.
ache: Acetylcholinesterase (ache, Electrophorus electricus, UniProt O42275)
UniProt O42275, sequence (whole entry, looked up): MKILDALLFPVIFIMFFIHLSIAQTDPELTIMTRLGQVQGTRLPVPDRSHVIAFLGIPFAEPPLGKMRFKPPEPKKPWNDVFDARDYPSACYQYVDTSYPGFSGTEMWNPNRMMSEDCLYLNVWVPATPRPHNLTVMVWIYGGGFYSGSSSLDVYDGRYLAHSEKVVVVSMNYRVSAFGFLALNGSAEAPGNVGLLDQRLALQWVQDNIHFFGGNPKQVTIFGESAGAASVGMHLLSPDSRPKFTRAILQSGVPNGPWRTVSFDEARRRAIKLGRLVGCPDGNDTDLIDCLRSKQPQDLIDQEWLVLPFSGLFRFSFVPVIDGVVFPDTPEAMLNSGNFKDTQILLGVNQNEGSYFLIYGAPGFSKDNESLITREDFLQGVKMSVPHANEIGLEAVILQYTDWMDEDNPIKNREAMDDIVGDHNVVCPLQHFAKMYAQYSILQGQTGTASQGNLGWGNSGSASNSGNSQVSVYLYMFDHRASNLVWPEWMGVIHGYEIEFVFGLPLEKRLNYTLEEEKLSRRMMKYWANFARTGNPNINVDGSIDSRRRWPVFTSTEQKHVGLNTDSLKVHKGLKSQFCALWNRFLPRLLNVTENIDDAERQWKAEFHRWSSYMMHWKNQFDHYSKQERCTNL
AKR1C2: Aldo-keto reductase family 1 member C2 (AKR1C2, Homo sapiens, UniProt P52895)
UniProt P52895, sequence (whole entry, looked up): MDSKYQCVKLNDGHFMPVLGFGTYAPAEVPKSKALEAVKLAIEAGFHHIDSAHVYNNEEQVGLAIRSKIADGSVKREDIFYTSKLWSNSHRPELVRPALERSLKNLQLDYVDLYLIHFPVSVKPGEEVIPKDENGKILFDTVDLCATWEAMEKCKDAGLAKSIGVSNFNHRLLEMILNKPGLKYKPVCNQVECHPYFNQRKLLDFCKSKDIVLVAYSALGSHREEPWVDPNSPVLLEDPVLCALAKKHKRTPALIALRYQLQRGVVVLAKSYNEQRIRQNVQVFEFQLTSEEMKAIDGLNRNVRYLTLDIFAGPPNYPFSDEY
Tripartite terminase subunit 3 C-terminal nuclease domain: Tripartite terminase subunit 3, C-terminal nuclease domain (Human betaherpesvirus 5, UniProt P16732)
UniProt P16732, sequence (whole entry, looked up): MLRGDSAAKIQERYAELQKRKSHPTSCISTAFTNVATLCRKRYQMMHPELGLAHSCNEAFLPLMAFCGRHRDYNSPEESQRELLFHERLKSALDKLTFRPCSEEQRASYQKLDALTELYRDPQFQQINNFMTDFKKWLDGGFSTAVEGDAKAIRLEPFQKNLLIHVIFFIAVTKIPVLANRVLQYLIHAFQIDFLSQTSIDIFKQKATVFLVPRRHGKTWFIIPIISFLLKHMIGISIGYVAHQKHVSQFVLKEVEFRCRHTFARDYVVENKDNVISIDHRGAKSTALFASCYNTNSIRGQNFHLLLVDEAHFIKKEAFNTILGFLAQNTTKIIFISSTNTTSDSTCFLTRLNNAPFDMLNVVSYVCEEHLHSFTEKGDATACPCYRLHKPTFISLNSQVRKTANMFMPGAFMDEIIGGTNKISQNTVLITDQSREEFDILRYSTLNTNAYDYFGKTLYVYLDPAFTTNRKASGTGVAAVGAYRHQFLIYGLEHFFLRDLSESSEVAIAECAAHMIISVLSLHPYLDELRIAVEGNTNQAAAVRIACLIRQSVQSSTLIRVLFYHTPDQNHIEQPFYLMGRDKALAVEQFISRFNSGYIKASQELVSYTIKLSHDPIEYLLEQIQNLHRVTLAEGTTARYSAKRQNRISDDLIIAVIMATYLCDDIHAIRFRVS
UniProt P00690, sequence (whole entry, looked up): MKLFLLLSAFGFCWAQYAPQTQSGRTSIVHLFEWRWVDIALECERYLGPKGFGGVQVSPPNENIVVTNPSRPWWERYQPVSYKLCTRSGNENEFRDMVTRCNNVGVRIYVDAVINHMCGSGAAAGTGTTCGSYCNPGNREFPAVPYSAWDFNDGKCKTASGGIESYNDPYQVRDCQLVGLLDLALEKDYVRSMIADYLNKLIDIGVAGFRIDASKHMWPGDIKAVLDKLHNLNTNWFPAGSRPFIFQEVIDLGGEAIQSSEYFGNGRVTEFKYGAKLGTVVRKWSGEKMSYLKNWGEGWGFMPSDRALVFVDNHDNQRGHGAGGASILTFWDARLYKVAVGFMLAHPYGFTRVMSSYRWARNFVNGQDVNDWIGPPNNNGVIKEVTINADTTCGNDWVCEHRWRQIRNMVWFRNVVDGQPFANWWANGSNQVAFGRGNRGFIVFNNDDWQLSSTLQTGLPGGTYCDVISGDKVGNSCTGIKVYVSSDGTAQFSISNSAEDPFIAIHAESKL
UniProt Q04759, sequence (whole entry, looked up): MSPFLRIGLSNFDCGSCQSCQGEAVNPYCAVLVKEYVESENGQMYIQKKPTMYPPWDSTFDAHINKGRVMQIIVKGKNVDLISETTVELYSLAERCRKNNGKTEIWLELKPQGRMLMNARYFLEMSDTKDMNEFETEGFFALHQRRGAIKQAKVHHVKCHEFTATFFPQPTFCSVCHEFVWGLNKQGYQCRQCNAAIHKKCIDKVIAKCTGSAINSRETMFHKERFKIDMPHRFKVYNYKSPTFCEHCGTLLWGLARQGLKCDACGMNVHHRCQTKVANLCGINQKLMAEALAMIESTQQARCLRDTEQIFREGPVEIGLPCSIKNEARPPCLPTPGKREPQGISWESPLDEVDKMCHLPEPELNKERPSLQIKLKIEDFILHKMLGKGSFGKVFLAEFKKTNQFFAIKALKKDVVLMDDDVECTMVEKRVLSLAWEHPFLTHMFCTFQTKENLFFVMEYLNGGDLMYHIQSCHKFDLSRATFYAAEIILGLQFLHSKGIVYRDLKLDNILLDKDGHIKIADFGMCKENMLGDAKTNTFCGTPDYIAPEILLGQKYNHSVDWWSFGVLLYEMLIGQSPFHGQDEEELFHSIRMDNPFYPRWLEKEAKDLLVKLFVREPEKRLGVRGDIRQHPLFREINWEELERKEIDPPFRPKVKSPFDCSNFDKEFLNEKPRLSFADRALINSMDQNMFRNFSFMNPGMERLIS
UniProt Q9HBA0, sequence (whole entry, unmodified, looked up): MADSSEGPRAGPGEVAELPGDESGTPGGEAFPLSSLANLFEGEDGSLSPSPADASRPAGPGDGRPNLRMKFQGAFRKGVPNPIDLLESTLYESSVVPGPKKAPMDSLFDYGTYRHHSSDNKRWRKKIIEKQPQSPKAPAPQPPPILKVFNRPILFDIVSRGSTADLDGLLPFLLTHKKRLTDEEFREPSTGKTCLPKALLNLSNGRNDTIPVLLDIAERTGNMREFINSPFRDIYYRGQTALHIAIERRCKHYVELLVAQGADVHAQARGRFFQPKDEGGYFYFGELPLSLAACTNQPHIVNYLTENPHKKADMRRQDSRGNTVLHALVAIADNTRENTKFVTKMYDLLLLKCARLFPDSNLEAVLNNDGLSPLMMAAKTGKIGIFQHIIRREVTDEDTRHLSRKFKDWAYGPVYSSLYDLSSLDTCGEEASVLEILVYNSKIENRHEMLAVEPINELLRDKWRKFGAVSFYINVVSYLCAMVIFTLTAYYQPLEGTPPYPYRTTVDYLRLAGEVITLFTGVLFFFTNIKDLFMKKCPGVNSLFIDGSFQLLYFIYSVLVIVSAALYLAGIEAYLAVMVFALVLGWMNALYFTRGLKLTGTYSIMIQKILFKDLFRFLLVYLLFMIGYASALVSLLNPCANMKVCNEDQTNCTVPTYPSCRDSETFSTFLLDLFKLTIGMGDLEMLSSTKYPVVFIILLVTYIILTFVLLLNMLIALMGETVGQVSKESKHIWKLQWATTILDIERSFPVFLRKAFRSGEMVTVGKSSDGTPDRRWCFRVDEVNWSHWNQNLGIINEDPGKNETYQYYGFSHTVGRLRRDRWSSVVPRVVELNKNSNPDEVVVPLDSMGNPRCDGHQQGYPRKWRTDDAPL
UniProt Q04828, sequence (whole entry, looked up): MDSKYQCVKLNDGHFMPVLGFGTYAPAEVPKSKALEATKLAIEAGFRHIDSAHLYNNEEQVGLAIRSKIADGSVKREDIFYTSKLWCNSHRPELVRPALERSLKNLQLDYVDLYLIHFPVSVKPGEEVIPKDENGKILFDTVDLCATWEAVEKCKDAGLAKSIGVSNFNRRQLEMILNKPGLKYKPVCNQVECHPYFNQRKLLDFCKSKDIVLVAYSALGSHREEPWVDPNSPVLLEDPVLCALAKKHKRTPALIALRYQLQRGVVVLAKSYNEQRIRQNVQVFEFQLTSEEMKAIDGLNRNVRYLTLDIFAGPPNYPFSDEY
UniProt P21452, sequence (whole entry, looked up): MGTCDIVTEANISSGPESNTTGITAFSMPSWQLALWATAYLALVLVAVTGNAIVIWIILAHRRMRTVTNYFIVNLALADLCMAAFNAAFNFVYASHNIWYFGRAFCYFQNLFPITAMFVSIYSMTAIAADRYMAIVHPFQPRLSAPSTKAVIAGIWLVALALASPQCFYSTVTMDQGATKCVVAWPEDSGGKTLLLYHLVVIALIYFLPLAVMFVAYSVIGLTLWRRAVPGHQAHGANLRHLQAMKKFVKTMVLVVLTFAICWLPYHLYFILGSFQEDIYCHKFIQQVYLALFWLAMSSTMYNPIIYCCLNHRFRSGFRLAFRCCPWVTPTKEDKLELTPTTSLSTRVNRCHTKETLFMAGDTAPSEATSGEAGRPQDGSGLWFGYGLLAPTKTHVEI
UniProt P27338, sequence (whole entry, looked up): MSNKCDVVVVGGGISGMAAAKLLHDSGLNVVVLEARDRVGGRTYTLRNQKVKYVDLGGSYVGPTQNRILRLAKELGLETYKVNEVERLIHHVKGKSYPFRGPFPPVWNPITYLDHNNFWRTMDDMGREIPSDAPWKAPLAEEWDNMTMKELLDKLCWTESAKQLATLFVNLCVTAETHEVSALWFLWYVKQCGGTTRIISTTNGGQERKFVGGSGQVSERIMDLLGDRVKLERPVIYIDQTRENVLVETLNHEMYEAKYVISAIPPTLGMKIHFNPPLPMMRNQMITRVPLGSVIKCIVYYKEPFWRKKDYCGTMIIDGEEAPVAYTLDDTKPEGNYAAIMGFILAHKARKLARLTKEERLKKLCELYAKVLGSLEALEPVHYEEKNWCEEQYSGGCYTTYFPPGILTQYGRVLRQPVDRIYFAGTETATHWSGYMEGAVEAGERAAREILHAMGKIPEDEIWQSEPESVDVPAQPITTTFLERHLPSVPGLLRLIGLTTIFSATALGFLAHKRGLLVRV

CCS(=O)(=O)N1CCN(CC(=O)Nc2ccc(/C=C/C(=O)c3ccc(OC)c(OC)c3)cc2)CC1 — inhibition (Amine oxidase [flavin-containing] B (MAOB, Homo sapiens, UniProt P27338); enzyme activity, inhibitor, fluorescence; 100 µM): 27.8%
CC(C)CC(O)(CC(C)C)c1cn(C(=O)N2CCCC2)nn1 — inhibition (Monoacylglycerol lipase ABHD6 (Abhd6, Mus musculus, UniProt Q8R2Y0); enzyme activity; mouse, brain; i.p., 0.8 mg/kg, apparent, not considered true): 50 to 60%
O=C(O)/C=C/c1ccc(O)cc1 — inhibition (alpha-amylase; enzyme activity, DNS; 500 µg/mL): 76.5 ± 2.8%
c1ccc2nc(Nc3c4c(nc5ccccc35)CCCC4)ccc2c1 — inhibition (ache; enzyme activity, inhibitor, Ellman; 100 µM): 83.5%
C[C@]12CC[C@H]3[C@@H](CCC4=CC(=O)C=C[C@@]43F)[C@@H]1CCC2=O — inhibition (AKR1C2; enzyme activity, inhibitor, absorbance; 100 µM, pH 9): 30%
COC(=O)N(C)[C@@H](Cc1ccccc1)C(=O)N[C@@H](Cc1ccccc1)C(=O)N[C@@H](Cc1ccc(O)cc1)C(=O)N[C@@H](CCCNC(=N)N)C(=O)N[C@@H](CC(C)C)C(=O)N[C@@H](CCCNC(=N)N)C(=O)N[C@@H](CCCNC(=N)N)C(=O)N[C@H](C)C(=O)N[C@@H](CCCNC(=N)N)C(=O)N1CCC[C@H]1C(=O)N[C@@H](CCCCN)C(N)=O — inhibition (Kappa-type opioid receptor (Oprk1, Rattus norvegicus, UniProt P34975); adenylyl cyclase activity, agonist; CHO cells; 10 µM; relative to: dynorphin A(1-13) amide): > 40%
OB(O)c1ccccc1-c1nnn[nH]1 — inhibition (Beta-lactamase (ampC, Escherichia coli K-12, UniProt P00811); inhibitor; 10 µM, together with: CENTA substrate): < 10%
O=C(C[P+]([Au-][Cl])(c1ccccc1)c1ccccc1)[O][Ti+2][O]C(=O)C[P+]([Au-][Cl])(c1ccccc1)c1ccccc1.c1cc[cH-]c1.c1cc[cH-]c1 — inhibition (Protein kinase C theta type (PRKCQ, Homo sapiens, UniProt Q04759); kinase activity; 10 µM): ≥ 50%
O=C(NCCCCCn1ccc2ccc(F)cc21)Oc1cccc(F)c1 — inhibition (Monoglyceride lipase (MGLL, Homo sapiens, UniProt Q99685); enzyme activity, inhibitor; 10 µM): 39%
C[C@]12CC[C@@H]3c4ccc(O)c(Cl)c4CC[C@H]3[C@@H]1CCC2=O — inhibition (AKR1C2; enzyme activity, inhibitor, absorbance; 100 µM, pH 9): 25%
CCOC(=O)[C@H]1Cc2c(cc([N+](=O)[O-])cc2[N+](=O)[O-])[C@@H](O)[C@@]12C(=O)Nc1ccccc12 — inhibition (E3 ubiquitin-protein ligase Mdm2 (MDM2, Homo sapiens, UniProt Q00987); 1 µM): 71.6 ± 3.8%
S=C(NCc1ccccn1)NCc1ccccn1 — inhibition (Pancreatic alpha-amylase (AMY2, Sus scrofa, UniProt P00690); enzyme activity, inhibitor; 500 µg/mL): 57.8%
COC1CC(=O)N(C)C=CCCCC(=O)N(C)C(C(C)C)C(=O)N(C)C(CC(C)C)C(=O)OC(C(C)C)CC(C)C1 (centres unmarked) — inhibition (Substance-K receptor (TACR2, Homo sapiens, UniProt P21452); β-arrestin recruitment, antagonist; 20 µM): > 70%
CCN(Cc1ccccc1)C(=O)CCc1nc(CN2CCN(C(=O)Cc3ccc(OC)c(OC)c3)CC2)no1 — inhibition (Sodium channel protein type 9 subunit alpha (SCN9A, Homo sapiens, UniProt Q15858); sodium current, whole-cell patch clamp; HEK293, stable; 20 µM): 52 ± 6%
Cc1ccc(N2CC3CCC(C2)N3C)cc1C(=O)N[C@H](C)c1cc(-c2cnn(C)c2)nc2ccccc12 — inhibition (Cathepsin B (CTSB, Homo sapiens, UniProt P07858); enzyme activity; concentration not given): no inhibition
CC(=O)NC(Cc1ccc(Br)c(Cl)c1)C(=O)N[C@@H](C)C(=O)N1CCC[C@H]1C(=O)N1CCC[C@H]1C(=O)N[C@@H](CCC(=O)O)C(=O)N[C@@H](Cc1c[nH]cn1)C(=O)N[C@@H](CO)C(=O)N[C@H](C(=O)N[C@@H](C)C(N)=O)[C@@H](C)OP(=O)(O)O (some centres unmarked) — inhibition (Angiopoietin-1 receptor (TEK, Homo sapiens, UniProt Q02763); cell-free assay, inhibitor; 10 µM): 0.35%
O=c1c(NCc2ccc(Br)cc2)c(NC2CCN(Cc3ccccc3)CC2)c1=O — inhibition (ache; enzyme activity, inhibitor, Ellman; 12.5 µM): 42.9%
CC(C)(C)c1ccc(Nc2c3c(nc4ccccc24)CCCC3)cc1 — inhibition (ache; enzyme activity, inhibitor, Ellman; 50 µM): 10.9%
C[C@@](O)(C(F)F)[C@H](NC(=O)c1ccc(C#CC#CC2CC2)cc1)C(=O)NO — inhibition (Disintegrin and metalloproteinase domain-containing protein 17 (ADAM17, Homo sapiens, UniProt P78536); enzyme activity, inhibitor; 30 µM): ≤ 30%
O=C(NCc1ccc(F)c(F)c1)c1cn(Cc2ccc(F)cc2)cc(O)c1=O — inhibition (Tripartite terminase subunit 3 C-terminal nuclease domain; endonuclease activity, inhibitor, ELISA; 20 µM): 7%
O=c1c(Nc2ccc(Br)cc2)c(NC2CCN(Cc3ccccc3)CC2)c1=O — inhibition (ache; enzyme activity, inhibitor, Ellman; 12.5 µM): 40.4%
COc1ccc(Nc2c3c(nc4ccccc24)CCCC3)nc1 — inhibition (ache; enzyme activity, inhibitor, Ellman; 100 µM): 54.3%
C[C@]12CCC[C@H]1[C@@H]1CCc3c(cc(Br)c(O)c3Br)[C@H]1CC2 — inhibition (AKR1C2; enzyme activity, inhibitor, absorbance; 10 µM, pH 9): 68%
COc1ccnc(Nc2c3c(nc4cc(C)ccc24)CCCC3)c1 — inhibition (ache; 100 µM): 98.5 ± 3.77%
Cc1c(C(=O)Nc2cccc(C(F)(F)F)c2)cc(-c2ccccc2)n1CCCN1CCOCC1 — inhibition (Transient receptor potential cation channel subfamily V member 4 (TRPV4, Homo sapiens, UniProt Q9HBA0, D546A); calcium influx, inhibitor; HeLa cells transfected; 10 nM, D546A mutant, together with: 30% hypotonicity): no inhibition
COc1ccc(CNc2c(NC3CCN(Cc4ccccc4)CC3)c(=O)c2=O)cc1OC — inhibition (ache; enzyme activity, inhibitor, Ellman; 25 µM): 70.1%
CC1CCc2nc3ccccc3c(Nc3ccc4ccccc4n3)c2C1 (centres unmarked) — inhibition (ache; enzyme activity, inhibitor, Ellman; 100 µM): 38.9%
Cc1ccc(CNC(=O)c2cn(Cc3ccc(F)cc3)cc(O)c2=O)c(F)c1 — inhibition (Tripartite terminase subunit 3 C-terminal nuclease domain; endonuclease activity, inhibitor, ELISA; 20 µM): 8%
C[C@]12CC[C@@H]3c4cc(Cl)c(O)c(Cl)c4CC[C@H]3[C@@H]1CCC2=O — inhibition (Aldo-keto reductase family 1 member C1 (AKR1C1, Homo sapiens, UniProt Q04828); enzyme activity, inhibitor, absorbance; 10 µM, pH 9): 46.9%
Cc1ccnc(Nc2c3c(nc4ccc(Cl)cc24)CCCC3)c1 — inhibition (ache; enzyme activity, inhibitor, Ellman; 100 µM): 67.7%
CC(C)C[C@@H]1NC(=O)[C@@H](NC(=O)CN)CSSC[C@@H]2NC(=O)[C@@H]3CSSC[C@@H](C(=O)N[C@@H](CC(N)=O)C(=O)N[C@@H](Cc4ccccc4)C(=O)N[C@@H](CO)C(=O)N[C@@H](Cc4ccccc4)C(N)=O)NC(=O)[C@H](CC(C)C)NC(=O)[C@H](CCCCN)NC(=O)[C@H](Cc4ccccc4)NC(=O)[C@H](CC(C)C)NC(=O)[C@H](CCCCN)NC(=O)[C@H](CO)NC(=O)[C@H](CSSC[C@H](NC(=O)[C@H](CCCCN)NC(=O)[C@H](Cc4c[nH]c5ccccc45)NC(=O)[C@H](Cc4c[nH]c5ccccc45)NC(=O)[C@H](Cc4ccccc4)NC(=O)[C@H](CCC(=O)O)NC1=O)C(=O)N[C@@H](CC(N)=O)C(=O)N1CCC[C@H]1C(=O)N[C@@H](CC(N)=O)C(=O)N[C@@H](CC(=O)O)C(=O)N[C@@H](CC(=O)O)C(=O)N[C@@H](CCCCN)C(=O)N3)NC(=O)[C@H](CCCCN)NC(=O)[C@H](CC(C)C)NC(=O)[C@H](CCCCN)NC(=O)[C@@H]1CCCN1C(=O)[C@H](CCCNC(=N)N)NC2=O — inhibition (Piezo-type mechanosensitive ion channel component 1 (Piezo1, Mus musculus, UniProt E2JF22); 2.5 µM, cell-based): 20 ± 5%
COc1ccnc(Nc2c3c(nc4ccccc24)CCC(C)C3)c1 (centres unmarked) — inhibition (ache; enzyme activity, inhibitor, Ellman; 100 µM): 66.6%
CC1(C)OB(c2ccc(CNC(=O)c3cn(Cc4ccc(F)cc4)cc(O)c3=O)cc2)OC1(C)C — inhibition (Tripartite terminase subunit 3 C-terminal nuclease domain; endonuclease activity, inhibitor, ELISA; 20 µM): 5%
COc1ccc(Nc2c3c(nc4ccccc24)CCCC3)cc1 — inhibition (ache; enzyme activity, inhibitor, Ellman; 50 µM): 24%
C/C(=N\OCCCN1CCCCC1)c1ccc(C(F)(F)F)cc1 — inhibition (Sigma non-opioid intracellular receptor 1 (Sigmar1, Rattus norvegicus, UniProt Q9R0C9); radioligand binding; 10 µM): 97.8%

Repeated from above:
C[C@]12CCC[C@H]1[C@@H]1CCc3c(cc(Br)c(O)c3Br)[C@H]1CC2 — inhibition (AKR1C2; enzyme activity, inhibitor, absorbance; 10 µM, pH 9): 68%
COc1ccnc(Nc2c3c(nc4cc(C)ccc24)CCCC3)c1 — inhibition (ache; 100 µM): 98.5 ± 3.77%
Cc1c(C(=O)Nc2cccc(C(F)(F)F)c2)cc(-c2ccccc2)n1CCCN1CCOCC1 — inhibition (Transient receptor potential cation channel subfamily V member 4 (TRPV4, Homo sapiens, UniProt Q9HBA0, D546A); calcium influx, inhibitor; HeLa cells transfected; 10 nM, D546A mutant, together with: 30% hypotonicity): no inhibition
COc1ccc(CNc2c(NC3CCN(Cc4ccccc4)CC3)c(=O)c2=O)cc1OC — inhibition (ache; enzyme activity, inhibitor, Ellman; 25 µM): 70.1%
